Measurements from different studies.
Compare with care: the assays were run in different laboratories. “And” joins repeats or separate records; there may be more than shown. Numbers after ± are the reported error.
Sequence of UniProt O00311 (whole entry, looked up): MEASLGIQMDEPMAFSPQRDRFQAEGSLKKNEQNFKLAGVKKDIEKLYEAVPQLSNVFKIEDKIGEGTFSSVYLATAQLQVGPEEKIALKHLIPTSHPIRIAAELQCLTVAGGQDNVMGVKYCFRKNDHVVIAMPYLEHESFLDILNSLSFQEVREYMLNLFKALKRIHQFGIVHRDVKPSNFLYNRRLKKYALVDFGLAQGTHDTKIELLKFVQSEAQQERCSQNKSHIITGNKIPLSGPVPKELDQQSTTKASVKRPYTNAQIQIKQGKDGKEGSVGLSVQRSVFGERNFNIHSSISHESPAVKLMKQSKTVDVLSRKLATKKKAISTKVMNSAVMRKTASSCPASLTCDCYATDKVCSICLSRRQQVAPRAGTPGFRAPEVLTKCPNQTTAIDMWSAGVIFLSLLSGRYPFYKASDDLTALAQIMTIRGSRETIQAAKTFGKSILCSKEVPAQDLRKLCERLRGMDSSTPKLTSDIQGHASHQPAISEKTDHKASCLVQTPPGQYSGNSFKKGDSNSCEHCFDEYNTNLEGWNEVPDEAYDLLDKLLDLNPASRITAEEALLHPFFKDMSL

C=CC[N+]1([C@H]2C[C@H]3[C@@H]4CC[C@H]5C[C@H](O)[C@@H](N6CCOCC6)C[C@]5(C)[C@H]4CC[C@]3(C)[C@H]2OC(C)=O)CCCC1 — terminal half-life (Sprague Dawley rat, plasma; intravenous, dose not given, added: sugammadex 5 mg/kg IV): 17.8 min
Cc1cc(C)c(CNC(=O)c2cc(Cl)c3c(c2C)O[C@@](C)([C@H]2CC[C@H](N(C)C)CC2)O3)c(=O)[nH]1 — incidence of tooth infection (relapsed/refractory NHL patients; dose not given, trial, safety set, treatment-related TEAE grade 5): 0%
CC(=O)c1c(C)c2cnc(Nc3ccc(C4CCN(CCS(C)(=O)=O)CC4)cn3)nc2n(C2CCCC2)c1=O — k_el (human, plasma; oral, 50 mg twice daily, day 1, single dose, added: letrozole): 5.28e-05 s⁻¹
CO[C@H]1C[C@@H]2CC[C@@H](C)[C@@](O)(O2)C(=O)C(=O)N2CCCC[C@H]2C(=O)O[C@H]([C@H](C)C[C@@H]2CC[C@@H](OC(=O)NCCOCCOCCOCCOCCOCCOCCOCCOCCC(=O)N3CCc4cc(Cn5nc(-c6ccc7oc(N)nc7c6)c6c(N)ncnc65)ccc4C3)[C@H](OC)C2)C[C@@H](O)[C@H](C)/C=C(\C)[C@@H](O)[C@@H](OC)C(=O)[C@H](C)C[C@H](C)/C=C/C=C/C=C/1C — Fatigue AE leading to dose reduction (patients with advanced solid tumours; intravenous, 1.6 mg/3 mg weekly, any grade): 0%
CC(C)[C@@H]1NC(=O)CNC(=O)[C@H](CC(N)=O)NC(=O)[C@H](CCCNC(=N)N)NC(=O)[C@H](Cc2ccc(O)cc2)NC(=O)[C@H](C(C)C)NC(=O)[C@@H](NC(=O)[C@@H](NC(=O)[C@H](CC(N)=O)NC(=O)[C@H](Cc2c[nH]c3ccccc23)NC(=O)[C@H](C)NC(=O)[C@H](Cc2ccccc2)NC(=O)CN)C(C)C)CSSC[C@@H](C(=O)N[C@@H](Cc2c[nH]cn2)C(=O)N[C@@H](CCCNC(=N)N)C(=O)N[C@@H](CCCNC(=N)N)C(=O)N[C@@H](C)C(=O)N[C@@H](CC(N)=O)C(N)=O)NC(=O)[C@H](C(C)C)NC(=O)[C@H](CCCNC(=N)N)NC1=O — secondary structure content (circular dichroism, item: β-Turn; PBS; 80 µM, pH 7.4): 21.6%
O=c1nc(NO)ccn1[C@@H]1O[C@H](CO)[C@@H](O)[C@H]1O — bench-top stability (rat maternal blood dialysate; 25 ng/mL, 6 h, room temperature, low concentration, added: molnupiravir 5 ng/mL): 99.8 ± 2.44%
C=CC(=O)N1CC[C@H](n2nc(C#Cc3cc(OC)cc(OC)c3)c3c(N)ncnc32)C1 — hyponatremia incidence, grade ≥3 (human patients, all; oral, dose not given, QD regimen, adverse drug reaction): 4.7%
O=c1ccc2ncc(=O)n3c2n1C[C@H]3CN1CCC(NCc2cc3c(cn2)OCCC3)CC1 — renal clearance (male Sprague Dawley rats, Mdr1a/Bcrp knockout; intravenous infusion, 125 mg/kg): 19.6 ± 2.2 mL/min/kg
O=C1Nc2cc3[nH]nc(-c4ccncc4)c3cc2CN1Cc1ccccc1 — patients with headache (CTCAE v4.03; advanced solid tumour patients; intravenous, 7.2 mg/kg, schedules 1/2): 20%
O=C(Nc1ccc(Cl)cc1)Nc1ccc(Cl)c(Cl)c1 — final permeate concentration (ultrafiltration; cow milk whey; 20 nM nominal in whole milk): 0.03 nM
C[C@H]1CN(c2n[nH]c3nc(N[C@H]4CC[C@H](NS(=O)(=O)CCC(F)(F)F)CC4)ncc23)CCO1 — relative abundance (Cell division cycle 7-related protein kinase (CDC7, Homo sapiens, UniProt O00311); inhibitor, Kinobeads competition profiling; 20 µM; reference: vehicle): 1.17
CN1CCN(S(=O)(=O)c2cc([N+](=O)[O-])ccc2N(CCOS(C)(=O)=O)CCOS(C)(=O)=O)CC1 — concentration (NSG mice female, plasma; intraperitoneal, 10 mg/kg, 0.5 h): 2.91 µM
CC1(C)C(C=C(Cl)Cl)C1C(=O)OC(C#N)c1ccc(F)c(Oc2ccccc2)c1 (centres unmarked) — enzyme contribution to clearance (item: CYP2C9; human, age 5 years, recombinant human CYP2C9; 0.1 µM): 2.01%
Cc1ccc(Cl)cc1N1CCN(CCCNc2ncnc3onc(-c4ccc(F)cc4)c23)CC1 — maximum response (Vero-E6; CellTiter-Glo ATP; 72 h, first round 5-point; reference: DMSO 0%, hyamine -100%, more negative, more toxic): -1.79%
CCS(=O)(=O)Nc1ccc(Oc2ccc(F)cc2F)c(-c2cn(C)c(=O)c3[nH]ccc23)c1 — treatment-emergent adverse events (febrile neutropenia leading to discontinuation; human, relapsed/refractory AML; oral, dose not given): 0%
CC(C)C[C@H](NC(=O)[C@H](CCCCN)NC(=O)OCC1c2ccccc2-c2ccccc21)C(=O)N[C@H](C(=O)N[C@@H](Cc1ccccc1)C(=O)N[C@@H](Cc1ccccc1)C(=O)N[C@@H](CCCCN)C(=O)NCC(=O)N[C@@H](Cc1ccccc1)C(=O)N[C@@H](C)C(=O)N[C@@H](Cc1c[nH]c2ccccc12)C(=O)N[C@@H](CC(N)=O)C(=O)N[C@H](C(=O)N[C@H]1CSSC[C@@H](C(=O)N[C@@H](Cc2c[nH]cn2)C(=O)N[C@@H](CCCNC(=N)N)C(=O)N[C@@H](CCCNC(=N)N)C(=O)N[C@@H](C)C(=O)N[C@@H](CC(N)=O)C(N)=O)NC(=O)[C@H](C(C)C)NC(=O)[C@H](CCCNC(=N)N)NC(=O)[C@H](C(C)C)NC(=O)CNC(=O)[C@H](CC(N)=O)NC(=O)[C@H](CCCNC(=N)N)NC(=O)[C@H](Cc2ccc(O)cc2)NC(=O)[C@H](C(C)C)NC1=O)C(C)C)C(C)C — peptide remaining (HPLC; trypsin buffer; 2.00 h, 37 °C, added: trypsin 1 % w/v): 53.7% and 52.1% and 59.3%
Cn1c(-c2ccc(C(N)=O)cc2F)nnc1C(C)(C)Oc1c(F)cc(Cl)cc1F — subjects with gastrointestinal TEAE (human; oral, dose not given, single ascending dose all doses): 5.6%
Cc1noc2c(NC3CCOCC3)cc(-c3cccc(C(F)(F)F)c3)nc12 — maximum response (Vero-E6; CellTiter-Glo ATP; 72 h, first round 5-point; reference: DMSO 0%, hyamine -100%, more negative, more toxic): -22.9%
C[C@@H](NC(=O)N1C(=O)[C@H](Cc2ccnc(N)c2)[C@H]1C(=O)O)C1CCCCC1 — elevated blood uric acid (healthy Chinese adult volunteers; continuous intravenous infusion, dose not given, 5.0 days, CTCAE 5.0, all doses): 2.5%
COc1cc2c(Oc3ccc4[nH]c(C)cc4c3F)ccnc2cc1OCC1(N)CC1 — grade 3 Epistaxis (paediatric recurrent refractory sarcoma; 8 mg/kg): 0%
CCCCN1CCC(COC(=O)c2ccc(N)c(O[11CH3])c2)CC1 — inhibition (radioligand hydrolysis, esterase inhibitor; rhesus monkey whole blood; concentration not given): 94 ± 2%
O=c1cc(-c2ccc(O)c(O)c2)oc2cc(O)cc(O)c12 — faecal excreted amount (male Sprague-Dawley rat, lean; oral, 100 mg/kg of neohesperidin, 24 to 36 h): 4.05 ± 2.47 ng
Nc1nc2cc(-c3ccc4ncc(C(=O)N5CCOCC5)n4c3)ccc2o1 — MTD (human, advanced solid tumours; intermittent schedule): 900 mg
CN1CC[C@@H](c2c(O)cc(O)c3c(=O)cc(-c4ccc(C(F)(F)F)cc4Cl)oc23)[C@@H]1CO — patients with adverse event (item: Neutropenia; relapsed B-cell malignancies; oral, 100 mg, grade 3-4, intermittent dosing): 0%
C[C@]1(CO)Cc2ncn(-c3ccc(C#N)c(Cl)c3)c2C(=O)O1 — subjects with drug-related headache (human, Chinese; 60 mg single dose): 0%
C=CCNc1c(O)cc2c(O)c1C[C@@H](C)C[C@H](OC)[C@H](O)[C@@H](C)/C=C(\C)[C@H](OC(N)=O)[C@@H](OC)/C=C\C=C(/C)C(=O)N2 — patients with AST increase (unresectable or metastatic sarcoma; intravenous, 500 mg/m^2, grade 3-4 lab change): 0%
O=C(Nc1ccccc1)C1CCN(C(=O)Oc2cccnc2)CC1 — change in Happy-Sad score (Bond-Lader VAS; healthy women; oral, 60 mg; reference: pre-dose baseline, direction not given): -15
COc1ncccc1-c1cnn2ccc(N3CCN(C(=O)OC(C)C)CC3)nc12 — drug concentration (rat, thermal hyperalgesia model, brain; oral, 10 mg/kg, 180 min): 3.3 µM
O=[N+]([O-])c1ccc2c(c1)S(=O)(=O)C=C2 — mean corpuscular haemoglobin (male C57BL/6 mice, blood; intraperitoneal, 10 mg/kg, day 8, group average): 15.2 pg

For quick reference, copied from above:
O=c1ccc2ncc(=O)n3c2n1C[C@H]3CN1CCC(NCc2cc3c(cn2)OCCC3)CC1 — renal clearance (male Sprague Dawley rats, Mdr1a/Bcrp knockout; intravenous infusion, 125 mg/kg): 19.6 ± 2.2 mL/min/kg
O=C1Nc2cc3[nH]nc(-c4ccncc4)c3cc2CN1Cc1ccccc1 — patients with headache (CTCAE v4.03; advanced solid tumour patients; intravenous, 7.2 mg/kg, schedules 1/2): 20%
O=C(Nc1ccc(Cl)cc1)Nc1ccc(Cl)c(Cl)c1 — final permeate concentration (ultrafiltration; cow milk whey; 20 nM nominal in whole milk): 0.03 nM
